# Measured values pooled from the literature.
# Each line is one published result; not all experiments were run side by side. Several values in a cell are separate wells, animals, samples, runs or records. ± gives the spread as reported.
# rep main protease: Replicase polyprotein 1ab, main protease (rep, Severe acute respiratory syndrome coronavirus 2, UniProt P0DTD1)
# Spike glycoprotein: Spike glycoprotein (Severe acute respiratory syndrome coronavirus 2, UniProt P0DTC2)
Compound,target or system,test,system,setting,scale,measurement,result
CC(C)C[C@H](NC(=O)[C@H](Cc1ccccc1)NC(=O)c1cnccn1)B(O)O,rep main protease,"reporter gene (mKate2), inhibitor",,20 µM,,inhibition,-0.662%
CC[C@H](C)[C@H](NC(=O)[C@@H]1CCCN1C(=O)[C@H](C)NC(=O)[C@@H]1CSSC[C@@H]2NC(=O)[C@H](CC(=O)O)NC(=O)[C@H](CCCNC(=N)N)NC(=O)[C@H](CCC(=O)O)NC(=O)[C@H](CCCNC(=N)N)NC(=O)CNC(=O)[C@H](CC(=O)O)NC(=O)[C@@H]3CSSC[C@H](NC(=O)[C@H](CCC(=O)O)NC(=O)[C@H](CC(C)C)NC(=O)CNC(=O)[C@H](C)NC(=O)[C@H](CSSC[C@H](NC(=O)[C@H](Cc4ccccc4)NC(=O)[C@@H](N)CO)C(=O)N[C@@H](CC(C)C)C(=O)N[C@@H](C(C)C)C(=O)N[C@@H](CCCCN)C(=O)N[C@@H](Cc4c[nH]c5ccccc45)C(=O)N[C@@H](CCCCN)C(=O)N[C@@H](CCC(N)=O)C(=O)N3)NC2=O)C(=O)N[C@@H](Cc2c[nH]c3ccccc23)C(=O)N[C@@H](CCCCN)C(=O)N[C@@H](CCCNC(=N)N)C(=O)N[C@@H](CO)C(=O)NCC(=O)N[C@@H](CC(N)=O)C(=O)N[C@@H](CCCCN)C(=O)N[C@@H](CO)C(=O)N[C@@H](CO)C(=O)N[C@@H](C(C)C)C(=O)N1)C(=O)N[C@H](C(=O)O)[C@@H](C)O,"ASIC1 (Homo sapiens, UniProt P78348, F352A)",outside-out patch clamp,HEK-293T ASIC1a knockout,"1 µM, F352A mutant",relative to: before toxin,rise time fold change,0.8 ± 0.2 fold
O=C(/C=C/c1ccc(O)c(O)c1)OC[C@H]1O[C@@H](OCCc2ccc(O)c(O)c2)[C@H](O)[C@@H](O)[C@@H]1O,Spike glycoprotein,binding,,,,koff,0.00309 s⁻¹
COc1ccc(CCNC(=O)c2cc(Nc3ccccc3)nc3ccccc23)cc1OC,SARS-CoV-2,cytopathic effect,USA_WA1/2020,"retest, 8-point, duplicates",,efficacy,0%
Nc1ncnc2c([C@@H]3N[C@H](CO)[C@@H](O)[C@H]3O)c[nH]c12,Sudan ebolavirus,viral replication,"HeLa, Boniface",200 µM,,inhibition,89.4%
C1=CCC2(CC1)COC(c1ccco1)OC2 (stereo not drawn),rep main protease,"viral replication, mKate2 reporter",SARS-CoV-2,20 µM,,inhibition,-0.645%
O=C(c1cc2ccc(O)cc2[nH]1)N1CC2(C1)CN(C(=O)[C@H]1CCc3n[nH]nc3C1)CCO2,rep main protease,"enzyme activity, inhibitor",,"5 µM, run 1",,inhibition,9.8%
CC#CCn1c(N2CCC[C@@H](N)C2)nc2c1c(=O)n(Cc1nc(C)c3ccccc3n1)c(=O)n2C,rep main protease,"reporter gene (mKate2), inhibitor",,20 µM,,inhibition,-0.552%
O=C(c1ccc2cccnc2c1)N1CC[C@@H]([C@@H]2CCCN(C(=O)c3cccn4cnnc34)C2)C1,rep main protease,"enzyme activity, inhibitor",,"5 µM, run 2",,inhibition,10.1%
CC(C)(O)[C@H]1CC[C@@](C)([C@H]2[C@@H](O)C[C@@]3(C)[C@@H]4C[C@H](O[C@@H]5O[C@H](CO)[C@@H](O)[C@H](O)[C@H]5O)[C@H]5C(C)(C)[C@@H](O[C@@H]6OC[C@@H](O)[C@H](O)[C@H]6O)CC[C@@]56C[C@@]46CC[C@]23C)O1,Spike glycoprotein,"binding, biolayer interferometry",,,,koff,0.385 s⁻¹
COc1ccc(-c2cn3c(n2)sc2cc(C(=O)NCCCN4CCCCCC4)ccc23)cc1,SARS-CoV-2,"cytopathic effect, cell-based CPE",USA_WA1/2020,,,AC50,11.2 µM
CC[C@H](C)[C@H](NC(=O)[C@H](CC(C)C)NC(=O)[C@H](Cc1c[nH]c2ccccc12)NC(=O)[C@H](CCC(N)=O)NC(=O)[C@@H](NC(=O)[C@H](Cc1ccccc1)NC(=O)[C@H](C)NC(=O)[C@H](CCCCNC(=O)COCCOCCNC(=O)COCCOCCNC(=O)CC[C@H](NC(=O)CCCCCCCCCCCCCCCCCCC(=O)O)C(=O)O)NC(=O)[C@H](CCC(N)=O)NC(=O)[C@H](C)NC(=O)[C@@H](NC(=O)[C@H](CCCCN)NC(=O)[C@H](CC(=O)O)NC(=O)[C@H](CC(C)C)NC(=O)C(C)(C)NC(=O)[C@@H](NC(=O)[C@H](CO)NC(=O)[C@H](Cc1ccc(O)cc1)NC(=O)[C@H](CC(=O)O)NC(=O)[C@H](CO)NC(=O)[C@@H](NC(=O)[C@H](Cc1ccccc1)NC(=O)[C@@H](NC(=O)CNC(=O)[C@H](CCC(=O)O)NC(=O)C(C)(C)NC(=O)[C@@H](N)Cc1ccc(O)cc1)[C@@H](C)O)[C@@H](C)O)[C@@H](C)CC)[C@@H](C)CC)C(C)C)C(=O)N[C@@H](C)C(=O)NCC(=O)NCC(=O)N1CCC[C@H]1C(=O)N[C@@H](CO)C(=O)N[C@@H](CO)C(=O)NCC(=O)N[C@@H](C)C(=O)N1CCC[C@H]1C(=O)N1CCC[C@H]1C(=O)N1CCC[C@H]1C(=O)N[C@@H](CO)C(N)=O,,,healthy subjects,all MAD doses,,subjects with injection site reaction,28.6%
O=C(NC[C@@H]1CC2(CCC2)CN1C(=O)c1ccc(F)c(O)c1)c1cncc2ccccc12,rep main protease,"enzyme activity, inhibitor",,"5 µM, run 2",,inhibition,27.4%
Clc1ccc(Cn2c(CN3CCCC3)nc3ccccc32)cc1,rep main protease,"reporter gene (Gaussia luciferase), inhibitor",,20 µM,,inhibition,-0.691%
CO[C@H]1[C@@H](O)[C@H](O[C@@H]2[C@@H](C)O[C@@H](O[C@H]3CC[C@@]4(C)[C@@H](CC[C@@]56O[C@@]57CC[C@@H](C(C)=O)[C@@]7(C)[C@H](OC(C)=O)[C@@H](OC(=O)c5ccccc5)[C@H]46)C3)C[C@H]2OC)O[C@H](C)[C@H]1O,Spike glycoprotein,"binding, biolayer interferometry",,,,kon,7790 M⁻¹ s⁻¹
Oc1ccc2ccccc2c1SSc1c(O)ccc2ccccc12,"Replicase polyprotein 1ab, nsp14 N7-methyltransferase (rep, Severe acute respiratory syndrome coronavirus 2, UniProt P0DTD1)","N7-methyltransferase activity, inhibitor, Py-FLINT",,,,Hill slope,0.91 ± 0.11
O=C1O[C@H]2[C@@H]3OC(=O)c4cc(O)c(O)c(O)c4-c4c(cc(O)c(O)c4O)C(=O)OC[C@H]2O[C@@H](OC(=O)c2cc(O)c(O)c(O)c2)[C@@H]3OC(=O)c2cc(O)c(O)c3c2[C@@H]2C1=CC(=O)[C@](O)(O3)C2(O)O,Spike glycoprotein,"binding, BLI",,,,koff,0.000334 s⁻¹
Nc1ccc(-c2nsc(=O)o2)cc1,"Proteasome subunit beta, open-gate 20S proteasome (prcB, Mycobacterium tuberculosis, UniProt P9WHT9)","enzyme activity, inhibitor",,,,kinact/KI,49 M⁻¹ s⁻¹
O=C(O)c1cc(NCc2cc(O)ccc2O)ccc1O,rep main protease,"reporter gene (Gaussia luciferase), inhibitor",,20 µM,,inhibition,2.08%
CCc1c(C(=O)C(N)=O)c2c(OCC(=O)O)cccc2n1Cc1ccccc1,Daboia russelii venom phospholipase A2,"enzyme activity, inhibitor",MH population,"1 µM, added: NOB substrate",relative to: venom alone,remaining activity,88.8% and 83.7% and 88.3%
O=C(NC[C@@H]1Cc2ccccc2CN1C(=O)c1nnn2ccccc12)c1cccc2[nH]ncc12,rep main protease,"enzyme activity, inhibitor",,"5 µM, mean of runs",,inhibition,10.3%
Cc1nc(N)c2cnn(C3CCN(C(=O)c4ccc(S(=O)(=O)F)cc4)CC3)c2n1,"cya (Bacillus anthracis, UniProt P40136)","enzyme activity, inhibitor",,,,kinact/KI,581 M⁻¹ s⁻¹
O=C(NCC[C@@H]1c2ccccc2CCN1C(=O)c1ncnc2[nH]ccc12)c1ccc[n+]([O-])c1,rep main protease,"enzyme activity, inhibitor",,"5 µM, mean of runs",,inhibition,13.4%
Cl[TeH]1(Cl)(Cl)OCCO1,rep main protease,"reporter gene (Gaussia luciferase), inhibitor",,20 µM,,inhibition,2.87%
Cn1cnc(Cn2c(=O)[nH]/c(=N\c3cc4cn(C)nc4cc3Cl)n(Cc3cc(F)c(F)cc3F)c2=O)n1,,,"human, severe renal impairment","oral, 375 mg, treatment-related dry mouth, Moderate severity",,patients with adverse event,0%
Cc1ccncc1C(=O)N[C@@H](CNC(=O)C1=NOCC1)c1ccc2ccccc2c1,rep main protease,"enzyme activity, inhibitor",,"5 µM, run 2",,inhibition,13.8%
CC(C)Cc1ccc([C@H](C)C(=O)O)cc1,rep main protease,"reporter gene (Gaussia luciferase), inhibitor",,20 µM,,inhibition,-0.132%
Cc1nc(C(=O)N2CC[C@@H]([C@@H]3CCCN3C(=O)c3cc(O)ccc3Cl)C2)cc(=O)[nH]1,rep main protease,"enzyme activity, inhibitor",,"5 µM, run 1",,inhibition,8.5%
C[C@@H]1[C@H](O)[C@@H](C)/C=C/C=C/CC/C=C/C=C/C=C/C=C/C(O[C@H]2O[C@H](C)[C@@H](O)[C@H](N)[C@@H]2O)CC2O[C@](O)(CC(O)C(O)CCC(O)CC(O)CC(O)CC(=O)O[C@H]1C)CC(O)C2C(=O)O (stereo partly drawn),Spike glycoprotein,"binding, biolayer interferometry",,,,koff,0.00611 s⁻¹
CC(C)(C)[C@H](NC(=O)C(F)(F)F)C(=O)N1C[C@H]2[C@@H]([C@H]1C(=O)N[C@H](C#N)C[C@@H]1CCNC1=O)C2(C)C,,,"healthy humans, fasted, plasma","oral, 150 mg single dose",,AUC(0-inf),2250 ng·h/mL
COc1ccc(-c2cc(=O)c3c(OC)cc(OC)c(OC)c3o2)cc1OC,rep main protease,"reporter gene (Gaussia luciferase), inhibitor",,20 µM,,inhibition,1.02%
Cc1ccc2[nH]ncc2c1C(=O)NC[C@H]1Cc2ccccc2CN1C(=O)C[C@H](C)c1ccco1,rep main protease,"enzyme activity, inhibitor",,"5 µM, run 2",,inhibition,11.6%
COc1ccc(C[C@@H]2c3cc(Oc4cc(C[C@@H]5c6cc(O)c(OC)cc6CCN5C)ccc4O)c(OC)cc3CCN2C)cc1,Spike glycoprotein,binding,,,,koff,0.131 s⁻¹

# A few entries again:
Compound,target or system,test,system,setting,scale,measurement,result
C1=CCC2(CC1)COC(c1ccco1)OC2 (stereo not drawn),rep main protease,"viral replication, mKate2 reporter",SARS-CoV-2,20 µM,,inhibition,-0.645%
O=C1O[C@H]2[C@@H]3OC(=O)c4cc(O)c(O)c(O)c4-c4c(cc(O)c(O)c4O)C(=O)OC[C@H]2O[C@@H](OC(=O)c2cc(O)c(O)c(O)c2)[C@@H]3OC(=O)c2cc(O)c(O)c3c2[C@@H]2C1=CC(=O)[C@](O)(O3)C2(O)O,Spike glycoprotein,"binding, BLI",,,,koff,0.000334 s⁻¹
Cc1nc(N)c2cnn(C3CCN(C(=O)c4ccc(S(=O)(=O)F)cc4)CC3)c2n1,"cya (Bacillus anthracis, UniProt P40136)","enzyme activity, inhibitor",,,,kinact/KI,581 M⁻¹ s⁻¹
COc1ccc(C[C@@H]2c3cc(Oc4cc(C[C@@H]5c6cc(O)c(OC)cc6CCN5C)ccc4O)c(OC)cc3CCN2C)cc1,Spike glycoprotein,binding,,,,koff,0.131 s⁻¹
